Measured values of several laboratories.
Compare with care: the assays were run in different laboratories. ± gives the spread as reported.

| Compound | tested on | assay | system | conditions | how to read | endpoint | value |
| --- | --- | --- | --- | --- | --- | --- | --- |
| CC(=O)Oc1ccccc1C(=O)Nc1ncc([N+](=O)[O-])s1 | – | – | nude mouse, SK-ST breast xenograft | oral, 200 mg/kg twice daily, 12 days, reversible after stopping | – | body weight loss | 7 to 10% |
| CC(C)Cc1ccc(C(C)C(=O)O)cc1 (racemic) | – | – | pig, abdominal skin | dose not given, 24 h, pH 7.4, 32 °C, donor 70% ethanol, 0.5 mm dermatomed | – | cumulative permeated amount | 303 ± 3.63 µg/cm2 |
| Oc1ccc(C=Cc2cc(O)cc(O)c2)cc1 | – | RT-PCR | ApcMin/+ mice | dose not given, added: benzo[a]pyrene | reference: untreated | CYP1B1 mRNA level | 3 fold |
| CCCCCCC#CC(=O)OC | cysteine peptide Ac-RFAACAA-COOH | DPRA RapidFire-MS/MS | – | 24 h, pH 7.5, added: 5.0 µM cysteine peptide | – | maximal peptide depletion | -40% |
| Cn1cc(C2=C(c3coc4ccc(F)cc34)C(=O)NC2=O)c2cc3c(cc21)OCO3 | – | – | nude mouse SK-OV-3 xenograft | i.p., 40 mg/kg every other day, 21 days, added: LiCl 340 mg/kg | reference: vehicle | body weight | no effect |
| CCOc1nc2cccc(C(=O)O)c2n1Cc1ccc(-c2ccccc2-c2nnn[nH]2)cc1 | – | shake-flask | Captex 355 | 37 °C | – | thermodynamic solubility | 0.01 mg/g |
| CCCCC/C=C/C(=O)CCc1ccc(O)c(OC)c1 | – | – | rat, small intestine site 4 contents | oral, dose not given, 2 h, β-glucuronidase treated | reference: ingested amount | recovery | 0.6% |
| CC1=CC(c2ccccc2)=NS(=O)(=O)N1 | – | plate reader | PVC/DOS polymer film-water | neutral form | – | log P | 1.1 ± 0.03 |
| CC(C)=CCc1c(O)cc2oc3c(CC=C(C)C)c(O)c(O)c(CC=C(C)C)c3c(=O)c2c1O | – | – | Balb/c nu/nu mice, HT-29 xenograft, tumour tissue | oral, 901 mg/kg xanthones in diet, 4 weeks after implantation | – | free tumour concentration | 140 ± 50 ng/g |
| Cc1ccc2c(=O)n(-c3ccc(F)cc3)c(CCN3C(=O)c4cccc(OC(C)C)c4C3=O)nc2c1 | – | shake flask | PBS | pH 7.4 | – | logD | 3.5 |
| CCCCN(CCCC)CCC(O)c1cc2c(Cl)cc(Cl)cc2c2cc(C(F)(F)F)ccc12 (centres unmarked) | – | shake-flask | Captex 355 | 37 °C | – | thermodynamic solubility | 99.6 ± 2.82 mg/g |
| COc1ccc(C(C)=O)cc1 | cysteine peptide Ac-RFAACAA-COOH | peptide depletion, DPRA RapidFire-MS/MS | – | 24 h, pH 7.5, room temperature, added: 5.0 µM cysteine peptide | – | IC50 | inactive |
| O=c1cc(-c2ccccc2)oc2cc(O)c(O)c(O)c12 | – | mass spectrometry | Caco-2 | 40 µM, 6 h | – | Papp A→B | 2.89 ×10⁻⁶ cm/s |
| Cc1nc(-c2ccc(OCC(C)C)c(C#N)c2)sc1C(=O)O | – | – | pediatric patients, plasma | oral, 40 mg once daily, fed, PopPK post hoc, weight at least 40 kg | – | half-life at steady state | 8.71 ± 1.6 h |
| CCCC[C@H](NC(C)=O)C(=O)N[C@H]1CCC(=O)NC[C@@H](C(=O)N[C@@H](Cc2c[nH]c3ccccc23)C(N)=O)NC(=O)[C@H](CCCNC(=N)N)NC(=O)[C@@H](Cc2ccccc2)NC(=O)[C@H](Cc2c[nH]cn2)NC1=O | – | – | female rat, plasma | subcutaneous, 1 mg/kg/day, multiple doses, once daily | – | CL/F | 20.1 mL/min/kg |
| COc1cccc(CN)c1O | – | – | male C57BL/6 mouse, liver | intraperitoneal, 200 mg/kg, single dose | – | half-life | 0.9 h |
| N=S(=O)(c1ccccc1)N1CCCCC1 (centres unmarked) | – | HPLC | – | pH 7.5 | – | chromatographic logD | 1.9 |
| C[C@]12CC[C@@H]3c4ccc(O)cc4CC[C@H]3[C@@H]1C[C@@H](O)[C@@H]2O | – | GC-MS | breast cancer women on NSAI, serum | vaginal, 0.03 mg, 4 h, day 0 | – | median serum concentration | 0.0261 ng/mL |
| CC(C)=CCC[C@](C)(O[C@@H]1O[C@H](CO)[C@@H](O)[C@H](O)[C@H]1O)[C@H]1CC[C@]2(C)[C@@H]1[C@H](O)C[C@@H]1[C@@]3(C)CC[C@H](O[C@@H]4O[C@H](CO)[C@@H](O)[C@H](O)[C@H]4O[C@@H]4O[C@H](CO)[C@@H](O)[C@H](O)[C@H]4O)C(C)(C)[C@@H]3CC[C@]12C | – | LC-MS/MS | healthy male volunteers, serum | oral, 3 g red ginseng | – | AUC(0-inf) | 6.93 ± 11.4 ng·h/mL |
| CCCC(CCC)NC(=O)c1ccc2c(c1)OCO2 | – | LC-MS | Sprague-Dawley rat both sexes pooled, plasma | oral, 200 mg/kg, 1 h | – | parent share of plasma peak area | 43.8% |

For quick reference, copied from above:
| Compound | tested on | assay | system | conditions | how to read | endpoint | value |
| --- | --- | --- | --- | --- | --- | --- | --- |
| COc1cccc(CN)c1O | – | – | male C57BL/6 mouse, liver | intraperitoneal, 200 mg/kg, single dose | – | half-life | 0.9 h |
| N=S(=O)(c1ccccc1)N1CCCCC1 (centres unmarked) | – | HPLC | – | pH 7.5 | – | chromatographic logD | 1.9 |
| C[C@]12CC[C@@H]3c4ccc(O)cc4CC[C@H]3[C@@H]1C[C@@H](O)[C@@H]2O | – | GC-MS | breast cancer women on NSAI, serum | vaginal, 0.03 mg, 4 h, day 0 | – | median serum concentration | 0.0261 ng/mL |
